# Published values collected from several papers.
# Lines come from different studies, so protocols differ. Values joined by “and” are separate records of one study, mostly repeats; a detail may differ. ± gives the spread as reported.
# Oprd1: Delta-type opioid receptor (Oprd1, Rattus norvegicus, UniProt P33533)
# UniProt P33533, sequence (whole entry, looked up): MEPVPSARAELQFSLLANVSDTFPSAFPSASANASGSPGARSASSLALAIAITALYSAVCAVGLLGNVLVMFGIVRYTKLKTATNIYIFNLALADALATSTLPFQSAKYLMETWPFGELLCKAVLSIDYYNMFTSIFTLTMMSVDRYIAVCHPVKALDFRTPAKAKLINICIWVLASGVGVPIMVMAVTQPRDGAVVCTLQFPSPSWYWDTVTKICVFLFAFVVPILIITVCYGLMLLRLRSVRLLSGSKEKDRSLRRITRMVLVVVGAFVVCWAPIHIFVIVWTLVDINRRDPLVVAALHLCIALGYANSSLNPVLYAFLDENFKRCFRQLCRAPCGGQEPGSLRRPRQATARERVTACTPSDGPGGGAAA
# DRD3: D(3) dopamine receptor (DRD3, Homo sapiens, UniProt P35462)
# UniProt P35462, sequence (whole entry, looked up): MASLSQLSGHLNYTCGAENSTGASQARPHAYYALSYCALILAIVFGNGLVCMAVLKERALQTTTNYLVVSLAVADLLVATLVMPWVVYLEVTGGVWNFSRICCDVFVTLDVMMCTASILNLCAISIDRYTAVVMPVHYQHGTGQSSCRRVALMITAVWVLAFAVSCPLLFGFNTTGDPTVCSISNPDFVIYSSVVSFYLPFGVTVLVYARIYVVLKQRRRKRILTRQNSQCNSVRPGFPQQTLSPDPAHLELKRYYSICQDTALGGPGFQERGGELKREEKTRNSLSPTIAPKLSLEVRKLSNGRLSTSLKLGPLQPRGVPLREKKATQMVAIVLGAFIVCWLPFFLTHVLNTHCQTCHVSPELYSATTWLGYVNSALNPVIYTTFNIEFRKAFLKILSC
# histidine kinase ComD: histidine kinase ComD (Streptococcus pneumoniae serotype 4, UniProt A0A0H2US84)
# Melanocortin receptor 4: Melanocortin receptor 4 (Mus musculus, UniProt P56450)
# UniProt P56450, sequence (whole entry, looked up): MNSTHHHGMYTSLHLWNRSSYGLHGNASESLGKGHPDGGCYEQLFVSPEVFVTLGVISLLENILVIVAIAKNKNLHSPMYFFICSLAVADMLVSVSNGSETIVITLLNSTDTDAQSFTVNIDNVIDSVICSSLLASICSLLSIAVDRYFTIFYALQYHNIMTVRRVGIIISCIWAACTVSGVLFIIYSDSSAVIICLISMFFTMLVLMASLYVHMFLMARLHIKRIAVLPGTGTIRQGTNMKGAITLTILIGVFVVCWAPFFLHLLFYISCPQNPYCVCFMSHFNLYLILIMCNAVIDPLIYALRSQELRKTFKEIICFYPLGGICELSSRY
# UniProt P41143, sequence (whole entry, looked up): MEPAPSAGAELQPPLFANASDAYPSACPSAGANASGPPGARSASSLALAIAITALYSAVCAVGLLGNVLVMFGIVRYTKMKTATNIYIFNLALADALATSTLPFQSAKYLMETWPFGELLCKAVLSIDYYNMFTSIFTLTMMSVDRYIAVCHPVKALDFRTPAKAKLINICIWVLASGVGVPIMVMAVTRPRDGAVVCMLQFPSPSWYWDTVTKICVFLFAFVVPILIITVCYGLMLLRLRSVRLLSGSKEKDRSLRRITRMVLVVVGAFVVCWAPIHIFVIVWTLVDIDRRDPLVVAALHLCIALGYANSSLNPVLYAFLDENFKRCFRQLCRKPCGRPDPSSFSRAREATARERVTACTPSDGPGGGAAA
# UniProt P43220, sequence (whole entry, looked up): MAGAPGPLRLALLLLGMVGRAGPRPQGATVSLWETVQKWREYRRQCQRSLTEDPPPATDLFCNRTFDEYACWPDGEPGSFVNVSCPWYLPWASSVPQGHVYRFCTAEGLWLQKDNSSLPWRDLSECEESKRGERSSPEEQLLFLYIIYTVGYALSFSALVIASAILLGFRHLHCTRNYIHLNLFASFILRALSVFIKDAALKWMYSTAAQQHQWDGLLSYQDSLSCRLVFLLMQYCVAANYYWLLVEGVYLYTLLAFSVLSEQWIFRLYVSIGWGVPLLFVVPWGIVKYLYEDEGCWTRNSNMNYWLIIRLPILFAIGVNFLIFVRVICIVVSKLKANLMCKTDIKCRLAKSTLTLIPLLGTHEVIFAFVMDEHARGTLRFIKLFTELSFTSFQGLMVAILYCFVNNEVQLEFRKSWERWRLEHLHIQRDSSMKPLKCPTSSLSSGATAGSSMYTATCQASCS
# UniProt P21554, sequence (whole entry, looked up): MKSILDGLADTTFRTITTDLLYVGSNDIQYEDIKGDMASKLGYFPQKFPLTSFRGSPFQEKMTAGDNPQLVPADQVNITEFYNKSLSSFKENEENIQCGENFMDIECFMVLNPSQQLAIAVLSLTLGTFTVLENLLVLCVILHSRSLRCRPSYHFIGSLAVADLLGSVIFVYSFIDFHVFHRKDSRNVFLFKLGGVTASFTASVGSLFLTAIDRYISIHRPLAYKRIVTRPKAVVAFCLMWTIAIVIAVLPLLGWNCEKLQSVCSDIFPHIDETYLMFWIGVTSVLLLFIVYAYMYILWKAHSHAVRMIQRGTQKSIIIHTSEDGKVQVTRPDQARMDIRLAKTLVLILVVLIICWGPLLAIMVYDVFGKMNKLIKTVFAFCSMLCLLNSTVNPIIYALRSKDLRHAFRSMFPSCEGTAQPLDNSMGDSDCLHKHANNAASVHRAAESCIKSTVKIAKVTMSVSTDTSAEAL
# UniProt A7T1N0, sequence (whole entry, unmodified, looked up): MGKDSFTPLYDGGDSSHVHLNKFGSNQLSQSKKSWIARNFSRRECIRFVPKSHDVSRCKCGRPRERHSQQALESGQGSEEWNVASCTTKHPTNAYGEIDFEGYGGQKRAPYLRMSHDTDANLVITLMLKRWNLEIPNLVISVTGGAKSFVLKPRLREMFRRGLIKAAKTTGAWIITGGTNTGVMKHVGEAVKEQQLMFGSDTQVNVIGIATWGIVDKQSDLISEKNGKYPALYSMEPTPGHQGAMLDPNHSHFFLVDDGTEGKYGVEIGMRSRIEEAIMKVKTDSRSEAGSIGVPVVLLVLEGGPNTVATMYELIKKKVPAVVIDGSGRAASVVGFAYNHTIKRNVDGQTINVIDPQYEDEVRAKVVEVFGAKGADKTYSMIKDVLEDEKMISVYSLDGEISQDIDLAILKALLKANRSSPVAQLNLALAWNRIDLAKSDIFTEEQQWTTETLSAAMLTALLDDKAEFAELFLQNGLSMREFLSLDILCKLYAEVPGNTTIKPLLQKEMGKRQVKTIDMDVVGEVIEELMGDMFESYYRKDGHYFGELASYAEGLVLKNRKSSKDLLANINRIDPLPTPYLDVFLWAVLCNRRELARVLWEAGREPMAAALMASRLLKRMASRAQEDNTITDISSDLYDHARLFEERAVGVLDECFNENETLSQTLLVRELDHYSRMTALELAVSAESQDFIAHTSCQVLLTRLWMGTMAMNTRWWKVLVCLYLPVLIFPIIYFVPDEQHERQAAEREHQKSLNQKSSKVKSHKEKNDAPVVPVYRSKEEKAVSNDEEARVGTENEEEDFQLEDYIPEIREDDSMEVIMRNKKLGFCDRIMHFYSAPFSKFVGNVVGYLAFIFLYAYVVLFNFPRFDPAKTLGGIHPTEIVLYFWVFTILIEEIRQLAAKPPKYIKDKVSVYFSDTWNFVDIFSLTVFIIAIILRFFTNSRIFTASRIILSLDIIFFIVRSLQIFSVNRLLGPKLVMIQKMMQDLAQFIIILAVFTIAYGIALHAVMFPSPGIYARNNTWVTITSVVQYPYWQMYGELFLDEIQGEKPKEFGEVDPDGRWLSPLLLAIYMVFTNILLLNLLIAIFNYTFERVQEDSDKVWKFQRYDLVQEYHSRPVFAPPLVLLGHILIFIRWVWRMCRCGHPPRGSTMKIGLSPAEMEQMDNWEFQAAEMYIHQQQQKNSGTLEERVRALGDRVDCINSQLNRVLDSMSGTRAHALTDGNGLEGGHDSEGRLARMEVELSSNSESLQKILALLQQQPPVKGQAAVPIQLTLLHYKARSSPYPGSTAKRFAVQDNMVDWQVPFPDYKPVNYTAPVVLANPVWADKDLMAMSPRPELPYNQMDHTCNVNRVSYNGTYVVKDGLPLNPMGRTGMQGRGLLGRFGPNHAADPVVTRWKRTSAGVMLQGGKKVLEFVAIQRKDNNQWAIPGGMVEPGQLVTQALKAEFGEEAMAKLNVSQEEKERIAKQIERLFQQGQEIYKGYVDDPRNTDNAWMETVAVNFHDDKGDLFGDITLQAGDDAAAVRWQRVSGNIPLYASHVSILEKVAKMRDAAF
# UniProt Q9NSD7, sequence (whole entry, looked up): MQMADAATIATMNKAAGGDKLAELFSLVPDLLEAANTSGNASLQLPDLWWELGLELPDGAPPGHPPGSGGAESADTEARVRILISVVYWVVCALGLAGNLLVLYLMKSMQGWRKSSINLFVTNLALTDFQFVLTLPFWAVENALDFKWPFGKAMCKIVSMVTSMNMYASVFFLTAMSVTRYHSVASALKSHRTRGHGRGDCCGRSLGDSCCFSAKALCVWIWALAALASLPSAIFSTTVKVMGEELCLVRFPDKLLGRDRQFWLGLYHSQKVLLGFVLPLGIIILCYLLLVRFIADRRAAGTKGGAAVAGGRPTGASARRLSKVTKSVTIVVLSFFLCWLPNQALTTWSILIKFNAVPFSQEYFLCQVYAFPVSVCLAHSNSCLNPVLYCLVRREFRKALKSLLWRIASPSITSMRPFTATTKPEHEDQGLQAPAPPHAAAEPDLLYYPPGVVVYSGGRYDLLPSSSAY
# UniProt P50391, sequence (whole entry, looked up): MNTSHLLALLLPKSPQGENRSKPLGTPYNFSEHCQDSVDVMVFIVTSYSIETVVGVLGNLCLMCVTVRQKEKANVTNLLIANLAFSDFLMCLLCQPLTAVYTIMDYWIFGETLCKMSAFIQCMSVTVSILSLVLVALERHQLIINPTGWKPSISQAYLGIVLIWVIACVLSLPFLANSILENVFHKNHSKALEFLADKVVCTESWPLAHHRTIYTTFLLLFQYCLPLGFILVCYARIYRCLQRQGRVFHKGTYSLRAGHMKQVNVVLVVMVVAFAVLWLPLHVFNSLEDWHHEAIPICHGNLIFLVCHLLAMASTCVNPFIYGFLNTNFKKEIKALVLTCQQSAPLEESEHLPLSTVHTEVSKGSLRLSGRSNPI
SMILES,target,assay,system,setting,EC50
CC[C@H](C)[C@@H]1NC(=O)[C@H](Cc2ccccc2)NC(=O)[C@H](CC(N)=O)NC(=O)[C@@H](NC(=O)[C@@H](NC(=O)[C@H](CO)NC(=O)[C@@H](N)Cc2ccc(O)cc2)[C@@H](C)O)CSC(=O)[C@H](CCSC)NC1=O,"Accessory gene regulator protein C (Staphylococcus aureus, UniProt O33590)",,,,1120 nM
Cc1cc(O)cc(C)c1CC(N)C(=O)NC1CCNc2c(CN3CCCCC3)cc(Cc3ccccc3)cc21 (centres unmarked),Oprd1,"GTPγS binding, agonist, radiometric",,cell membranes,27 nM
Nc1ncnc2c1ncn2C1OC(COP(=O)(O)OP(=O)(O)OCC2OC(O)C(O)C2O)C(O)C1O (centres unmarked),"TRPM2 (Nematostella vectensis, UniProt A7T1N0, R271A)","channel activation, agonist, inside-out patch clamp",,"R271A, 2.5 µM PIP2, added: 125 µM Ca2+",620 ± 50 nM
CC(C)C[C@H](NC(=O)[C@H](CCC(=O)O)NC(=O)[C@H](C)NC(=O)[C@H](CCC(=O)O)NC(=O)[C@H](CCC(=O)O)NC(=O)[C@H](Cc1c[nH]cn1)NC(=O)[C@H](CCCNC(=N)N)NC(=O)[C@H](CCC(=O)O)NC(=O)[C@H](CC(N)=O)NC(=O)[C@H](CCCCN)NC(=O)[C@H](CC(C)C)NC(=O)[C@H](CCCNC(=N)N)NC(=O)[C@H](CCC(N)=O)NC(=O)[C@H](CC(C)C)NC(=O)[C@H](CCC(=O)O)NC(=O)[C@H](C)NC(=O)[C@H](CC(=O)O)NC(=O)[C@H](C)NC(=O)[C@@H](NC(=O)[C@H](CC(C)C)NC(=O)[C@H](CCCCN)NC(=O)[C@H](CCC(=O)O)NC(=O)[C@@H](N)C(C)C)[C@@H](C)O)C(=O)N[C@@H](CCC(=O)O)C(=O)N[C@@H](CCCNC(=N)N)C(=O)N[C@@H](CC(C)C)C(=O)N[C@@H](CCCCN)C(=O)N[C@@H](CO)C(=O)N[C@@H](CCC(=O)O)C(=O)N[C@@H](Cc1ccc(O)cc1)C(=O)O,"Plasminogen (PLG, Homo sapiens, UniProt P00747)","plasminogen activation, chromogenic substrate S-2251",,"pH 7.4, added: catalytic streptokinase-plasmin complex, Glu-plasminogen 50 nM",50400 nM
CC(N)CCc1ccccc1Cl (racemic),DRD3,"GTPγS binding, agonist, radiometric",,cell membranes,1100 nM and ~1000 nM and 1110 nM
CC(C)C[C@@H]1NC(=O)[C@H](Cc2ccc(O)cc2)NC(=O)[C@@H](CO)NC(=O)[C@H](C)NC(=O)[C@@H](NC(=O)[C@@H]2CCCN2C(=O)[C@H](CC(N)=O)NC(=O)[C@H](Cc2ccc(O)cc2)NC(=O)[C@H](CCCCN)NC(=O)[C@H](C)NC(=O)[C@H](C)NC(=O)[C@@H](N)CC(N)=O)CSC1=O,"Accessory gene regulator protein C (Staphylococcus epidermidis, UniProt Q8VSX2)",,,,145 nM
O=C(c1ccc2c(c1)c1ccccc1n2CC1CCOCC1)c1cccc2ccccc12,"CNR1 (Homo sapiens, UniProt P21554)","GTPγS binding, agonist, radiometric",,cell membranes,12.9 nM
Cc1cc(O)cc(C)c1CC(N)C(=O)NC1CCNc2c(C)cc(Cc3ccccc3)cc21 (centres unmarked),Oprd1,"GTPγS binding, agonist, radiometric",,cell membranes,110 nM
CCN1CCC[C@@H]1CNC(=O)c1cn(C2CCCC2)c(=O)c2c1c1ccccc1n2C,"GLP1R (Homo sapiens, UniProt P43220)","calcium mobilization, positive allosteric modulator",9-3-H cells,added: GLP-1 at EC20,> 10000 nM
CNC(C)CCc1ccccc1Cl (racemic),DRD3,"phosphorylation in cells, agonist, western blot",,,39.2 nM
CCCC[C@@H]1NC(=O)[C@H](Cc2ccccc2)NC(=O)CNC(=O)[C@H](NC(=O)[C@@H](N)Cc2ccc(O)cc2)C(C)(C)SSC(C)(C)[C@@H](C(=O)N[C@@H](Cc2c[nH]c3ccccc23)C(=O)NCc2cc(C(F)(F)F)cc(C(F)(F)F)c2)NC(=O)[C@@H]2CCCN2C1=O,"OPRD1 (Homo sapiens, UniProt P41143)","GTPγS binding, agonist, radiometric",,cell membranes,530 nM
CC[C@H](C)[C@H](NC(=O)[C@H](Cc1ccccc1)NC(=O)[C@@H]1CNC(=O)NCC[C@H](NC(=O)[C@H](CO)NC(=O)[C@H](CC(C)C)NC(=O)[C@H](CCCNC(=N)N)NC(=O)[C@H](CCSC)NC(=O)[C@H](C)N)C(=O)N[C@@H](Cc2ccccc2)C(=O)N[C@@H](Cc2ccccc2)C(=O)N[C@@H](CCCNC(=N)N)C(=O)N1)C(=O)N[C@@H](CC(C)C)C(=O)N[C@@H](CCC(N)=O)C(=O)N[C@@H](CCCNC(=N)N)C(=O)N[C@@H](CCCCN)C(=O)N[C@@H](CCCCN)C(=O)O,histidine kinase ComD,,Streptococcus pneumoniae,,> 1000 nM
CC[C@H](C)[C@H](NC(=O)[C@@H](N)CCC(=O)O)C(=O)N[C@@H](CCCNC(=N)N)C(=O)N[C@@H](CCC(N)=O)C(=O)N[C@H](C(=O)N[C@@H](Cc1c[nH]cn1)C(=O)N[C@@H](Cc1ccccc1)C(=O)N[C@@H](Cc1ccccc1)C(=O)N[C@@H](Cc1ccccc1)C(=O)N[C@@H](Cc1ccccc1)C(=O)N[C@@H](Cc1ccccc1)C(=O)N[C@@H](Cc1ccccc1)C(=O)N[C@@H](Cc1ccccc1)C(=O)N[C@@H](CCCCN)C(=O)N[C@@H](CCCNC(=N)N)C(=O)N[C@@H](CCCNC(=N)N)C(=O)O)[C@@H](C)O,histidine kinase ComD,"reporter gene, agonist","Streptococcus pneumoniae, TIGR4 comX::lacZ","30 min, pH 7.3, 37 °C",> 10000 nM
CC(=O)N[C@@H](CCCNC(=N)N)C(=O)N[C@@H](Cc1ccc(O)cc1)C(=O)N[C@@H](CCCN/C(N)=N/C(=O)NCCCCN)C(=O)N[C@@H](CC(C)C)C(=O)N[C@@H](CCCNC(=N)N)C(=O)N[C@@H](Cc1ccc(O)cc1)C(N)=O,"NPY4R (Homo sapiens, UniProt P50391)","β-arrestin 1 recruitment, agonist",HEK293T,,144 ± 28 nM
CC(=O)N[C@@H](CCCNC(=N)N)C(=O)N[C@@H](CCCNC(=N)N)C(=O)N[C@H](C(=O)N1Cc2ccccc2C[C@H]1C(N)=O)[C@@H](c1ccccc1)c1c[nH]c2ccccc12,Melanocortin receptor 4,"cAMP, agonist, AlphaScreen",,,> 100000 nM
C[C@@H]1NC(=O)[C@H](CC(N)=O)NC(=O)[C@H](Cc2c[nH]c3ccccc23)NC(=O)[C@H](CCCNC(=N)N)NC(=O)[C@@H](Cc2ccccc2)NC(=O)[C@H](Cc2c[nH]cn2)NC(=O)[C@@H](NC(=O)[C@@H](N)Cc2ccc(O)cc2)CCCn2cc(nn2)-c2cccc(c2)-c2cn(nn2)CCC[C@@H](C(=O)N[C@@H](Cc2ccc(O)cc2)C(N)=O)NC(=O)[C@H](Cc2ccccc2)NC1=O,Melanocortin receptor 4,agonist,,,971 ± 213 nM
CC(C)C[C@@H]1NC(=O)[C@H](Cc2ccc(O)cc2)NC(=O)[C@H](CO)NC(=O)[C@H](C)NC(=O)[C@@H](NC(=O)[C@@H](NC(=O)[C@H](CC(N)=O)NC(=O)[C@H](Cc2ccc(O)cc2)NC(=O)[C@@H](N)CCCCN)C(C)C)CSC1=O,"Accessory gene regulator protein C (Staphylococcus epidermidis, UniProt O86861)",,,,1020 nM
CC[C@H](C)[C@@H]1NC(=O)[C@H](C(C)C)NC(=O)[C@H](C)NC(=O)[C@H](CCCNC(=N)N)NC(=O)[C@H]([C@@H](C)CC)NC(=O)[C@](C)(NC(=O)[C@H](CCC(=O)O)NC(=O)[C@H](CCCNC(=N)N)NC(=O)CNC(=O)[C@H](CS)NC(=O)[C@H](CC(C)C)NC(=O)[C@H](CCCNC(=N)N)NC(=O)[C@@H](NC(=O)CNC(=O)[C@H](Cc2ccc(O)cc2)NC(=O)[C@@H]2CCCN2C(=O)[C@H](C)NC(=O)[C@H](C)NC(=O)[C@@H](N)CCCNC(=N)N)C(C)C)CCCC=CCCCCCC[C@@](C)(C(=O)N[C@@H](CS)C(=O)NCC(=O)NCC(=O)N[C@@H](CO)C(=O)N[C@@H](CCCNC(=N)N)C(=O)N[C@@H](Cc2c[nH]c3ccccc23)C(=O)O)NC(=O)[C@H](Cc2ccccc2)NC1=O,"RXFP3 (Homo sapiens, UniProt Q9NSD7)","cAMP, agonist",,,3 nM
CC(C)C[C@@H]1NC(=O)[C@H](Cc2ccc(O)cc2)NC(=O)[C@H](CO)NC(=O)[C@H](C)NC(=O)[C@@H](NC(=O)[C@@H]2CCCN2C(=O)[C@H](CC(N)=O)NC(=O)[C@H](Cc2ccc(O)cc2)NC(=O)[C@@H](N)CCCCN)CSC1=O,"Accessory gene regulator protein C (Staphylococcus epidermidis, UniProt Q8VSX2)",,,,28.9 nM
OC1(c2ccc(Cl)cc2)CCN(Cc2c[nH]c3ccccc23)CC1,DRD3,"cell growth or viability, thymidine uptake",,,> 10000 nM

# For quick reference, copied from above:
SMILES,target,assay,system,setting,EC50
CC(=O)N[C@@H](CCCNC(=N)N)C(=O)N[C@@H](CCCNC(=N)N)C(=O)N[C@H](C(=O)N1Cc2ccccc2C[C@H]1C(N)=O)[C@@H](c1ccccc1)c1c[nH]c2ccccc12,Melanocortin receptor 4,"cAMP, agonist, AlphaScreen",,,> 100000 nM
CC[C@H](C)[C@@H]1NC(=O)[C@H](C(C)C)NC(=O)[C@H](C)NC(=O)[C@H](CCCNC(=N)N)NC(=O)[C@H]([C@@H](C)CC)NC(=O)[C@](C)(NC(=O)[C@H](CCC(=O)O)NC(=O)[C@H](CCCNC(=N)N)NC(=O)CNC(=O)[C@H](CS)NC(=O)[C@H](CC(C)C)NC(=O)[C@H](CCCNC(=N)N)NC(=O)[C@@H](NC(=O)CNC(=O)[C@H](Cc2ccc(O)cc2)NC(=O)[C@@H]2CCCN2C(=O)[C@H](C)NC(=O)[C@H](C)NC(=O)[C@@H](N)CCCNC(=N)N)C(C)C)CCCC=CCCCCCC[C@@](C)(C(=O)N[C@@H](CS)C(=O)NCC(=O)NCC(=O)N[C@@H](CO)C(=O)N[C@@H](CCCNC(=N)N)C(=O)N[C@@H](Cc2c[nH]c3ccccc23)C(=O)O)NC(=O)[C@H](Cc2ccccc2)NC1=O,"RXFP3 (Homo sapiens, UniProt Q9NSD7)","cAMP, agonist",,,3 nM
